{"data": "Assay results of several laboratories", "note": "Each numbered part is a random draw from the data of one study; scales do not carry over between parts."}
{"data": "Study 1", "target": "RNA binding protein fox-1 homolog 2, RRM domain, GST-SBP tag (RBFOX2, Homo sapiens, UniProt O43251-10, residues 100-194)", "technique": "RNA Bind-n-Seq", "molecule type": "RNA", "medium": "in vitro", "tested at": "365 nM", "setting": "natural RNA segment, single round, ends assumed", "reference": "no-protein control", "reading": "higher = stronger binding", "Target sequence (chain)": "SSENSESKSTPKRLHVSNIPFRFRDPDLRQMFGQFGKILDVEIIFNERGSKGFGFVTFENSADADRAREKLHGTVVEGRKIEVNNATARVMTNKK"}
{"Strand": "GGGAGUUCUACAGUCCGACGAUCAGUUGGAAUUCUCCCACUGCCCUAAAACUUUCCCUAGUAGUCCUUUAAACUCCCCCCUCCCUUUUUGGUAGCUGUUUUCUCCGUCCUCUCUCCACCUGCCCUCUUAUCUAUGGAAUUCUCGGGUGCCAA", "RBNS enrichment (R)": 2.15}
{"Strand": "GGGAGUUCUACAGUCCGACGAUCCCCGUGUGGCUUUAUCCUGUCCCUGCUGUUGCGAGGAAGCUGUGAGGGUACCUUCAGAUGAGAUACCUGCUUGUAUUUUAAGAGAAACAAGUAGCCAAAGAAACUCUGUCUGGAAUUCUCGGGUGCCAA", "RBNS enrichment (R)": 0.575}
{"Strand": "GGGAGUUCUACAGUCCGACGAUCUCUGAGGCCCUAGAGGAGUUUGUAUCAAUUUGUGAGUAUUAAUGUCAGUACUACCAGCACUUUGCCAAAACUGUCAGAGGGACCCGUUUCUAGAGUGAGUCCCAGUUACAUGGAAUUCUCGGGUGCCAA", "RBNS enrichment (R)": 0.312}
{"Strand": "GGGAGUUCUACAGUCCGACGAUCUCUUUUCCUUCUCCAUCAUCUUAGAGCCAAGUUAUAUGUUCUUGUCUAAUCCAUGUAGCUUUUUGUUCAAUGACUUGAUCAUCUGCUUCCUUUUUGAAUUUUUAACAGAUUGGAAUUCUCGGGUGCCAA", "RBNS enrichment (R)": 0.633}
{"Strand": "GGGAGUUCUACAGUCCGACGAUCCACCAUGGAUACUCGCCCGUGGGCAGGGCUGUGGUCAGCCAAGAAUAGAGGUCAUAUAGUUGGGCCAUGGGGCAAUUGUUGGCAGCCAUGACUGACGGCCCCUUGUGCAAUGGAAUUCUCGGGUGCCAA", "RBNS enrichment (R)": 0.561}
{"Strand": "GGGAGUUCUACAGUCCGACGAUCGGAAAAUGAAGCUCGGGCUGGUUAACUGCUUGCUCAGCGUCCCAUGGCCUAGCCGCCCGUGACUCUCACACUGUCUCCUGCAUGACGGGUGGCGCCUCCCGCAGCUUCCCUGGAAUUCUCGGGUGCCAA", "RBNS enrichment (R)": 11.6}
{"Strand": "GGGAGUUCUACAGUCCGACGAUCCUAUAAGGCUGAGGCAGAAGGUUCCAGAAUUCAAGGACACUCAGGCCUACAUAUAUAGCAAGACUGUGUCAAAAAAAAAAAAAAAAAGUUAGCAUUGCUUUAAUGGACUGUGGAAUUCUCGGGUGCCAA", "RBNS enrichment (R)": 0.698}
{"Strand": "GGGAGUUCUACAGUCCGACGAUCUGUAAAUAUGGAGUAAGUAUUGUAAACUAUUUAAUUGCUGCGAUUGUUGGGUUAUACAUACAUUUAGGACUGCAAUUUUUUGGUAUUUUUUGUAUUGUAAAAUAACAGCUUGGAAUUCUCGGGUGCCAA", "RBNS enrichment (R)": 1.84}
{"data": "Study 2", "target": "Interferon regulatory factor 7, full length, phosphomimetic (IRF7, Homo sapiens, UniProt Q92985, residues 1-503, S101K/S471D/S472D/S475D/S476D/S477D/S483D/S484D/S487D)", "technique": "protein-binding microarray", "molecule type": "double-stranded DNA, one strand shown", "medium": "in vitro", "tested at": "250 nM", "setting": "60-bp whole probe", "with": "salmon DNA 0.4 mg/ml", "reference": "random background probes", "reading": "higher = stronger binding", "constant ends, left off below": "GCCTAGCAC … GTCTTGATTCGCTTGACGCTGCTG", "chain of UniProt Q92985 (whole entry, unmodified, looked up)": "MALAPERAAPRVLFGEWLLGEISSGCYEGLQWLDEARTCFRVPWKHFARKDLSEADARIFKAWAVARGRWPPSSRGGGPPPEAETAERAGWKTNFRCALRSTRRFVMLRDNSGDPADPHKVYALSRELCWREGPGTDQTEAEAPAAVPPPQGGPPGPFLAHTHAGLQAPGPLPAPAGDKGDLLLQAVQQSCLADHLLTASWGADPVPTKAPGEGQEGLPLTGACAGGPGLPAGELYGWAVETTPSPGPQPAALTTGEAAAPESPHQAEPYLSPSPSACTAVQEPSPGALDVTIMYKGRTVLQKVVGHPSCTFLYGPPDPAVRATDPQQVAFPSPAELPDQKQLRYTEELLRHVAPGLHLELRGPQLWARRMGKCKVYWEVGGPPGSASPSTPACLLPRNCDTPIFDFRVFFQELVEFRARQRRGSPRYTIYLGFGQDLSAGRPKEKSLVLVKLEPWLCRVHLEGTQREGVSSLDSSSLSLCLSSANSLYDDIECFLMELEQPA"}
{"Strand": "GACGGACTGGACACTGCGGACGTGCTA", "log fluorescence [z-score]": -0.716}
{"Strand": "GAAGGTCTCGGACTGGGGACGTGCTAG", "log fluorescence [z-score]": -0.188}
{"Strand": "TTAGGTCTCCTTCGCCTTTAGTGCTAG", "log fluorescence [z-score]": 0.158}
{"Strand": "TTAGATCTCAGTCTCCATTAGTGCTAG", "log fluorescence [z-score]": 0.371}
{"Strand": "GAGGGACTGCTTTTCCTGACGTGCTAG", "log fluorescence [z-score]": 0.367}
{"Strand": "TTAGGACTGATACTGCTTTAGTGCTAG", "log fluorescence [z-score]": -0.135}
{"Strand": "GACGAACTGGGTCTCGGGACGTGCTAG", "log fluorescence [z-score]": -0.0758}
{"Strand": "TTAGATCGCAGTATCGATTAGTGCTAG", "log fluorescence [z-score]": 0.546}
{"Strand": "GACGGTATAGACACTGGGGACGTGCTA", "log fluorescence [z-score]": -0.412}
{"Strand": "TCATCTCTGCTTGTGTCACTGTGCTAG", "log fluorescence [z-score]": 0.592}
{"Strand": "TCATTTTCGTTTTTATTACTGTGCTAG", "log fluorescence [z-score]": 9.3}
{"Strand": "TTAGGTATGCTTATCCTTTAGTGCTAG", "log fluorescence [z-score]": -0.0713}
{"Strand": "TTAGGACCGCTTTTCCTTTAGTGCTAG", "log fluorescence [z-score]": 4.05}
{"Strand": "GACGTTATCGGGTTTCGGGACGTGCTA", "log fluorescence [z-score]": 2}
{"Strand": "GACTGACTGCTACTGCTGACGTGCTAG", "log fluorescence [z-score]": -0.678}
{"Strand": "GACGGACTGCTTATACTGACGTGCTAG", "log fluorescence [z-score]": -0.606}
{"Strand": "TCAGCTTTCCTCGTGATACTGTGCTAG", "log fluorescence [z-score]": 0.592}
{"Strand": "GACGATATCGGGTTTAGAGACGTGCTA", "log fluorescence [z-score]": -0.278}
{"Strand": "GACGCACTGAGTTTCGAGACGTGCTAG", "log fluorescence [z-score]": 3.31}
{"data": "Study 3", "target": "Sal-like protein 4, full length isoform A (SALL4, Homo sapiens, UniProt Q9UJQ4, residues 1-1053)", "technique": "universal PBM", "molecule type": "double-stranded DNA, one strand shown", "medium": "in vitro", "tested at": "600 nM", "setting": "8-mer, flanks averaged, mean of replicates", "reading": "higher = stronger binding", "chain of UniProt Q9UJQ4 (whole entry, looked up)": "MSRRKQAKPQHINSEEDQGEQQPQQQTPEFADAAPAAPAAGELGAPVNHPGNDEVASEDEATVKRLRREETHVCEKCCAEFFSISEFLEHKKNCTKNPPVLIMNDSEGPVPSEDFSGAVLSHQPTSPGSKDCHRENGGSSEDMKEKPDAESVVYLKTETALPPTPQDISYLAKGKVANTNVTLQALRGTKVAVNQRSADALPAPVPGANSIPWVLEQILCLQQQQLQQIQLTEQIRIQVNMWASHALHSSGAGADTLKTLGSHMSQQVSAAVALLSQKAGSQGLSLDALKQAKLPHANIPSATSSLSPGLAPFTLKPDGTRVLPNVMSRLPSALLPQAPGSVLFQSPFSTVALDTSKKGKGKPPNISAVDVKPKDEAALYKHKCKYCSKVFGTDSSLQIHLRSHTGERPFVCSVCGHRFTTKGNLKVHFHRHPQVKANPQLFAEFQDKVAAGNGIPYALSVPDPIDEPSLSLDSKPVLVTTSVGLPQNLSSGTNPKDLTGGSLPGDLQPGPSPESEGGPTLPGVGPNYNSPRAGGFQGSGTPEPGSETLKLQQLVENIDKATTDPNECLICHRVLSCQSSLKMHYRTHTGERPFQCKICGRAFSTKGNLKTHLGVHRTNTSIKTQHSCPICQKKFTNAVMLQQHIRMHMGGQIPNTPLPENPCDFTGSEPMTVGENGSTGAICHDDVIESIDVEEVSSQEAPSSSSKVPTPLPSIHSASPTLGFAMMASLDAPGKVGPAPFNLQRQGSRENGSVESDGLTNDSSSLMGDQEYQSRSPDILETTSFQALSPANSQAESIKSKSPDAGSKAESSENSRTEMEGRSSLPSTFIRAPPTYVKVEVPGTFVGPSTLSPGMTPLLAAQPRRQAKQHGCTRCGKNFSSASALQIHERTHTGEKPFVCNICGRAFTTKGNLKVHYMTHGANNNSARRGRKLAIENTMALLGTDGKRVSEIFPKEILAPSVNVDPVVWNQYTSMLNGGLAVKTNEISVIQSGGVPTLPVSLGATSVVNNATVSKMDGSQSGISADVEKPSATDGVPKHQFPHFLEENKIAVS"}
{"Strand": "CGCCTGCA", "E-score": -0.269}
{"Strand": "GCAGCTCA", "E-score": -0.205}
{"Strand": "TAAGCAGA", "E-score": -0.0185}
{"Strand": "ATTCAGAA", "E-score": 0.168}
{"Strand": "AGTCTGGG", "E-score": -0.26}
{"Strand": "AGATCTGG", "E-score": -0.183}
{"Strand": "GCAGTAAC", "E-score": -0.0523}
{"Strand": "ACAAGGGA", "E-score": 0.0319}
{"Strand": "AAGAGCCT", "E-score": -0.106}
{"Strand": "AGAAAGAC", "E-score": -0.117}
{"Strand": "ACGTTAGG", "E-score": 0.0528}
{"Strand": "CGTTTGTA", "E-score": 0.102}
{"Strand": "GGCCCTAC", "E-score": -0.339}
{"Strand": "AGCTAATC", "E-score": 0.145}
{"Strand": "CGGCAAAG", "E-score": -0.258}
{"Strand": "CTCTGGGC", "E-score": -0.166}
{"Strand": "AACCGATT", "E-score": 0.0168}
{"Strand": "ATGGAAAT", "E-score": 0.263}
{"Strand": "ATGCAGGG", "E-score": -0.152}
{"Strand": "ACCAAAAA", "E-score": 0.277}
{"Strand": "GCAAATCC", "E-score": -0.0213}
{"data": "Study 4", "target": "Centromere-binding protein 1, full length, N-terminal tag (CBF1, Saccharomyces cerevisiae, UniProt P17106, residues 1-351)", "technique": "protein-binding microarray", "molecule type": "double-stranded DNA, one strand shown", "medium": "in vitro", "tested at": "0.8 µM", "setting": "whole 60-bp probe, no competitor", "reading": "higher = stronger binding", "chain of UniProt P17106 (whole entry, looked up)": "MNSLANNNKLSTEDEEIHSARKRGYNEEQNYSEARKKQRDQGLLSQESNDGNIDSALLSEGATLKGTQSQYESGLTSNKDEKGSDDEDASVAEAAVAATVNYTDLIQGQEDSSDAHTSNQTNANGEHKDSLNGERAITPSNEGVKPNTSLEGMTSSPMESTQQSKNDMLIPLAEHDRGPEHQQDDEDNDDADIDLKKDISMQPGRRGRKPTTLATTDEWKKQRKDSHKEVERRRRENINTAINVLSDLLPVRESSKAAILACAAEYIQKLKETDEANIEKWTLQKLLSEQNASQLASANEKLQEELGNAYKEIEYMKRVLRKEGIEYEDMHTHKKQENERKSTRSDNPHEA"}
{"Strand": "CTACCAATTCCACGGCACATGTAGATCTGCGAGTTCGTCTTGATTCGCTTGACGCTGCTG", "fluorescence intensity [a.u.]": 843}
{"Strand": "CTAGAGCAAGAACATCATCAGAAATACCAATGTTTCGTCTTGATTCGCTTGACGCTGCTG", "fluorescence intensity [a.u.]": 504}
{"Strand": "CCTAACTACTATAGAAACGTGATATAGCTTCGTACAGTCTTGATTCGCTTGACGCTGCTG", "fluorescence intensity [a.u.]": 1400}
{"Strand": "GAATTTTTAATCCTTTGCGTGGTTGTAATTGAATAGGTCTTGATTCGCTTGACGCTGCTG", "fluorescence intensity [a.u.]": 558}
{"Strand": "GAATGCGTCACTGCCCACGAGCACATGGGGTGATAGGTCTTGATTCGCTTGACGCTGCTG", "fluorescence intensity [a.u.]": 1060}
{"Strand": "CTAGTGATACTCAGTCACCAGACACTTACAGTGTTCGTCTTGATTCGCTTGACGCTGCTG", "fluorescence intensity [a.u.]": 628}
{"Strand": "GAACTGTTGGTAGCGATGGTGGTGGTAGTGGTGTAGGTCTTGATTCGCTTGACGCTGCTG", "fluorescence intensity [a.u.]": 548}
{"Strand": "GAATTCTTCCAGCCTCATGACCTCAATAAACTTTAGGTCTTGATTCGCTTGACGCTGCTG", "fluorescence intensity [a.u.]": 889}
{"Strand": "CTAATTGGATTCGATCACGATGTATTCAATGAGTTCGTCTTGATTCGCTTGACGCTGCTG", "fluorescence intensity [a.u.]": 725}
{"Strand": "GAATTTTTAATTATCCACGAGATATTCGAACCTTAGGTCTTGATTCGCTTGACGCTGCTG", "fluorescence intensity [a.u.]": 608}
{"Strand": "CTAACAGTATTTCATCACGACAAGCATATCCAATTCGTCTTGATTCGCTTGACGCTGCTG", "fluorescence intensity [a.u.]": 604}
{"Strand": "CTATTCTTTACTGAGACCGTGATCAGGAGAACGTTCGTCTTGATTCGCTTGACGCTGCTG", "fluorescence intensity [a.u.]": 1210}
{"Strand": "GAAAAGAATCTTAATCACGAATTAGGCGTATTGTAGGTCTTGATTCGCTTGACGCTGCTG", "fluorescence intensity [a.u.]": 604}
{"Strand": "CTATGTTCTTGTAGCTACACCACGATTGAGTGTTTCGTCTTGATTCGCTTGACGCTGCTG", "fluorescence intensity [a.u.]": 511}
{"Strand": "CTAGTTCATAAAACACACATGAAACAACCTTATTTCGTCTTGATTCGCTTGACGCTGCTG", "fluorescence intensity [a.u.]": 516}
{"Strand": "CTAAACAGGACACTACATCAGAGATAATCTTGATTCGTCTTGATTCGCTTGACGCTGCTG", "fluorescence intensity [a.u.]": 518}
{"Strand": "CTAAAGGACTTGTCACATGAAATTTAGGTCGAGTTCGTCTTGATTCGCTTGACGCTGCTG", "fluorescence intensity [a.u.]": 897}
{"note": "Some of these lines once more (study 4):"}
{"Strand": "GAATGCGTCACTGCCCACGAGCACATGGGGTGATAGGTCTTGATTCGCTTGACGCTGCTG", "fluorescence intensity [a.u.]": 1060}
{"Strand": "CTAGTGATACTCAGTCACCAGACACTTACAGTGTTCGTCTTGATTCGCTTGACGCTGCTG", "fluorescence intensity [a.u.]": 628}
{"Strand": "GAACTGTTGGTAGCGATGGTGGTGGTAGTGGTGTAGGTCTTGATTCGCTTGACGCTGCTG", "fluorescence intensity [a.u.]": 548}
{"Strand": "GAATTCTTCCAGCCTCATGACCTCAATAAACTTTAGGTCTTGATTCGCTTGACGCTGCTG", "fluorescence intensity [a.u.]": 889}
{"Strand": "CTAATTGGATTCGATCACGATGTATTCAATGAGTTCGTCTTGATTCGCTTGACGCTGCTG", "fluorescence intensity [a.u.]": 725}
{"Strand": "GAATTTTTAATTATCCACGAGATATTCGAACCTTAGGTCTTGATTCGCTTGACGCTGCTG", "fluorescence intensity [a.u.]": 608}
{"Strand": "CTAACAGTATTTCATCACGACAAGCATATCCAATTCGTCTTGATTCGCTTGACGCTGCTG", "fluorescence intensity [a.u.]": 604}
